Published values from different studies.
A part holds a random share of what one study measured.

Sample 1
Target: Interferon regulatory factor 7, full length, phosphomimetic (IRF7, Homo sapiens, UniProt Q92985, residues 1-503, S471D/S472D/S475D/S476D/S477D/S483D/S484D/S487D)
Method: protein-binding microarray
Form: double-stranded DNA, one strand shown
Matrix: in vitro
Tested at: 2200 nM top
Setting: 60-bp whole probe
Added: salmon DNA 0.4 mg/ml
Relative to: random background probes
Direction: higher = stronger binding
Shared flanks, not repeated: GCCTAGCAC … GTCTTGATTCGCTTGACGCTGCTG
Residues (chain): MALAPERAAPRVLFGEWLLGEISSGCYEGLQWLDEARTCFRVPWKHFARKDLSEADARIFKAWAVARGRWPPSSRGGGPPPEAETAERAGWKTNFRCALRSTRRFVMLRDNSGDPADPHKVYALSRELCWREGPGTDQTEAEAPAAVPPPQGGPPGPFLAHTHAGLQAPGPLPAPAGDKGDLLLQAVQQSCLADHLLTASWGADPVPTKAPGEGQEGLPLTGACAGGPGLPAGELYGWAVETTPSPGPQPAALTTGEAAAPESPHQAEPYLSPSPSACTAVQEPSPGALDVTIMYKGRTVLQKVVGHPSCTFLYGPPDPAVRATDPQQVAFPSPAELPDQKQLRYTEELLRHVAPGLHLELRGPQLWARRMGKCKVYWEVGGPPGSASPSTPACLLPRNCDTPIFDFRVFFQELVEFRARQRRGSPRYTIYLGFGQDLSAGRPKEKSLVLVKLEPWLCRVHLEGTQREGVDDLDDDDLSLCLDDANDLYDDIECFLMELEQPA
| Strand | fitted relative affinity [z-score] |
| --- | --- |
| GACGGTTTCGACACTGGTGACGTGCTA | 2.83 |
| GACAATATCAGTCTCGAGACGTGCTAG | 0.317 |
| GACGGATTCGGGACTGGGGACGTGCTA | 0.383 |
| CCCTGTGTTACTTTCTACTTGTGCTAG | 4.54 |
| TTAGATTTCAGAGTGGATTAGTGCTAG | -0.33 |

Sample 2
Target: Histone acetyltransferase KAT6A, winged helix 2, GST fusion (KAT6A, Homo sapiens, UniProt Q92794, residues 85-181)
Method: protein binding microarray
Form: double-stranded DNA, one strand shown
Matrix: in vitro
Tested at: not given
Setting: 8-mer, flanks averaged, mean of 2 arrays, mostly near background
Relative to: not given
Direction: higher = stronger binding
Target sequence (chain): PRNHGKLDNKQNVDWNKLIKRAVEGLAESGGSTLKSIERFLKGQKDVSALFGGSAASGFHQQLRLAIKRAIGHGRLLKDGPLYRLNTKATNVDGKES
| Strand | E-score |
| --- | --- |
| CAGATAGG | -0.0975 |
| CCTTGTCC | 0.0988 |
| CTCGGGAC | 0.0715 |
| TCCCTAAA | -0.0376 |

Sample 3
Target: Sal-like protein 4, full length isoform B (SALL4, Homo sapiens, UniProt Q9UJQ4-2, residues 1-616)
Method: universal PBM
Form: double-stranded DNA, one strand shown
Matrix: in vitro
Tested at: not given
Setting: 8-mer, flanks averaged, mean of replicates
Direction: higher = stronger binding
Target sequence (chain): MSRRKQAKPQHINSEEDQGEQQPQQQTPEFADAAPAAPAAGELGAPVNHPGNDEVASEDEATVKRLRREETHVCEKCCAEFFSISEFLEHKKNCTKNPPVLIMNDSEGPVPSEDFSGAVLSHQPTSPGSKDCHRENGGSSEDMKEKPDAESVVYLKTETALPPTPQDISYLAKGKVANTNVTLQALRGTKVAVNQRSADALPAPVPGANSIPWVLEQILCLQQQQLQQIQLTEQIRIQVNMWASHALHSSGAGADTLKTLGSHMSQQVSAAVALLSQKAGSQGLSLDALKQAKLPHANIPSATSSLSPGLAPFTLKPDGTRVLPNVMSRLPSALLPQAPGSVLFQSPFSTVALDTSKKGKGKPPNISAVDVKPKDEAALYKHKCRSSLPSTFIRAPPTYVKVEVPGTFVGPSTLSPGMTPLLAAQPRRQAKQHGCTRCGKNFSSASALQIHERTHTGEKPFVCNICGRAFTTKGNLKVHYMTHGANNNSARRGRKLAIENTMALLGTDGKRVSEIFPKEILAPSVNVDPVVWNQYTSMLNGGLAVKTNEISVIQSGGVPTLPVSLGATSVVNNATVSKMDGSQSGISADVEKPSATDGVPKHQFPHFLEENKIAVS
| Strand | E-score |
| --- | --- |
| ATTGTTCC | 0.0175 |
| ATCGGTTA | 0.156 |
| CACACACA | 0.00147 |
| AAAGTCCG | -0.158 |

Single results of other studies
| Molecule | target | test | test system | conditions | scale | quantity | result |
| --- | --- | --- | --- | --- | --- | --- | --- |
| PhoQ, residues 284 288 289 292 302 303 SSCCRF | PhoP, residues 12 14 15 18 19 VQGLL (Escherichia coli, UniProt P23836) | Sort-seq, refers to: YFP reporter | E. coli | PhoQ-PhoP variant library, added: 10 µM Mg2+ | relative to: high Mg2+ state, higher = stronger signaling | fold induction | 16.3 |

A few entries again (sample 1):
| Strand | fitted relative affinity [z-score] |
| --- | --- |
| GACAATATCAGTCTCGAGACGTGCTAG | 0.317 |
